Assay results collected from several papers.
Parts stem from different laboratories: compare values within a part only.

Block 1
Target: RNA binding protein fox-1 homolog 2, RRM domain, GST-SBP tag (RBFOX2, Homo sapiens, UniProt O43251-10, residues 100-194)
Method: RNA Bind-n-Seq
Form: RNA
Matrix: in vitro
Tested at: 365 nM
Setting: natural RNA segment, single round, ends assumed
Reference: no-protein control
Direction: higher = stronger binding
Residues (chain): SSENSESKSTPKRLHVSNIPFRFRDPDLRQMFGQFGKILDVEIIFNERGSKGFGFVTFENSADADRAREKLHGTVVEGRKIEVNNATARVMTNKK
Under “RBNS enrichment (R)”, `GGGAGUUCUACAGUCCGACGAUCCAAUAAGCUCGUGUCGUCUGUCAGAGCCCCUCUCUCAACUCUGUGACCUGAUAAUGUUUCUAAGAAAAAGAAAAAAAGGACAAAAGGGAGGGAACCACUACCAAAAAAAAUGGAAUUCUCGGGUGCCAA` is recorded as 0.546.
Under “RBNS enrichment (R)”, `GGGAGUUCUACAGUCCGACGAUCUUUAGUGACCAGCUGAUCUUCCCUUGGAUCCUCCAAUAAAGGGGAAAAAAUACUUGUCUUAUGUUGUUUUAGCAAGGGAGUUCAGCCAAGUGACAGGAAAGAUUCCCUGGUGGAAUUCUCGGGUGCCAA` is recorded as 0.623.
`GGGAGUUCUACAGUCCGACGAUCGCAAGGUGAGGAUUGGACUCGUGGGUGCCAGGAUCGGCUGGAGGACCUCCUGCCAAAGAGAGCUUUUGCUGAGCCGGGACACUUGCCUCUCCACACAGUGGCCCCAGCCGUGGAAUUCUCGGGUGCCAA`: “RBNS enrichment (R)” 0.504.
For `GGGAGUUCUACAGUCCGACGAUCGGUAUUUCUAACGCCAGCACACUAUUUACAAGAUGGACUUACCUGGCAGACUUGCCCAGGUCACCAAGCAGUGGCCUUUUUCUGAGAUGCUCACUUUAUUAUCCCUAUUUUGGAAUUCUCGGGUGCCAA`, “RBNS enrichment (R)” read 0.305.
For `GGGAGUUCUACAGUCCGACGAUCAAGAUCUGGAACUAACGCCAGUAGCAUGUGGAUGCCAUGGAGACUGGAAGACCAUUCCAACUUGGACGCGUUACCAUGAGAGCAUAUCCUAUCCAACCGUACUAACGUGGUGGAAUUCUCGGGUGCCAA`, “RBNS enrichment (R)” read 8.06.
`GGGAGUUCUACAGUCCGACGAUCUGUAUAUGUGUGUGUAUGUGUAGGGGCAGCCCCUAUCUCUGGCUCCUUUUCCACCCUUCUCCCCAGUGCCUUCCUCGUCCUGGUGGAGCUGAGGCCUACUCCUCCCCAGUUGGAAUUCUCGGGUGCCAA` — result for “RBNS enrichment (R)”: 2.48.
`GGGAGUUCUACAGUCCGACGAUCCAUUUCAUCUGAGGUUGCUGUCUUUUUGGUGGGGAGGGGUUUGGGGAACCCAUCAGGUAUGAGUGAGGAGCCGGUAGUGAAUUCAGUAUUGGCCAAGUCCAUGUUGUGUGUGGAAUUCUCGGGUGCCAA`: “RBNS enrichment (R)” 1.87.
`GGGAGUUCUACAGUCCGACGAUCUCACGGGAAUGGAGUCCAUGCUAGAAAGAGCUCAGUGUUGGGCUGGGUUUGCCAGUAGAACACUGCGUUCCAGUCACCCCGGUCUUGCCAGAAGAAACCAGCACCUCUUUUGGAAUUCUCGGGUGCCAA`: “RBNS enrichment (R)” 0.589.
`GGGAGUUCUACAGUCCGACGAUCUUAGAAUCUUUACCAAAGAUCUGGAGUUAGGGUAGCCUUUCUAUUUUAGUACUGAACUCCUGUGCCCUUCUUUUUUAAAAAGGUCUUCCCUCAUUUUGUAUAUUUAGCCAUGGAAUUCUCGGGUGCCAA`: “RBNS enrichment (R)” 1.06.
For `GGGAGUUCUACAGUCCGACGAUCGUGAGCAGGGAGCAUAAUUAUUGGUUUAUUAUGGUAAUUAUGGUGAUUUUUUAAAUAUCAUGUAAUGUUAAAACGUUUUCUAACAGUUUACUGUUGCUUAUCUCCAAGAUUGGAAUUCUCGGGUGCCAA`, “RBNS enrichment (R)” read 0.362.
`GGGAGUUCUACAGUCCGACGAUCCUAUUUAUAAGUGACUUUAAACCUUCUCUUGGCUGUUAAGAAAUGUGUUCUAGAUUUAGCUAUUUAUUGUUUGCGGCCUGCAUGCUGAAACAGUGCUUACGUUGUCUCCAUGGAAUUCUCGGGUGCCAA` — result for “RBNS enrichment (R)”: 1.6.
`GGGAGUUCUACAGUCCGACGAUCGUAGAGUUUGGAAAUAAUUUAUGCAAGUGUUUGGUUCCCAUGUUUACAAUUUUUACAGCUUUCCUAGGAUUUUAAAAUGGAAAUGUCAAUAAAUGCUACGAAUCGGUGUGUGGAAUUCUCGGGUGCCAA`: “RBNS enrichment (R)” 4.03.

Block 2
Target: Sal-like protein 4, full length isoform A (SALL4, Homo sapiens, UniProt Q9UJQ4, residues 1-1053)
Chain of UniProt Q9UJQ4 (whole entry, looked up): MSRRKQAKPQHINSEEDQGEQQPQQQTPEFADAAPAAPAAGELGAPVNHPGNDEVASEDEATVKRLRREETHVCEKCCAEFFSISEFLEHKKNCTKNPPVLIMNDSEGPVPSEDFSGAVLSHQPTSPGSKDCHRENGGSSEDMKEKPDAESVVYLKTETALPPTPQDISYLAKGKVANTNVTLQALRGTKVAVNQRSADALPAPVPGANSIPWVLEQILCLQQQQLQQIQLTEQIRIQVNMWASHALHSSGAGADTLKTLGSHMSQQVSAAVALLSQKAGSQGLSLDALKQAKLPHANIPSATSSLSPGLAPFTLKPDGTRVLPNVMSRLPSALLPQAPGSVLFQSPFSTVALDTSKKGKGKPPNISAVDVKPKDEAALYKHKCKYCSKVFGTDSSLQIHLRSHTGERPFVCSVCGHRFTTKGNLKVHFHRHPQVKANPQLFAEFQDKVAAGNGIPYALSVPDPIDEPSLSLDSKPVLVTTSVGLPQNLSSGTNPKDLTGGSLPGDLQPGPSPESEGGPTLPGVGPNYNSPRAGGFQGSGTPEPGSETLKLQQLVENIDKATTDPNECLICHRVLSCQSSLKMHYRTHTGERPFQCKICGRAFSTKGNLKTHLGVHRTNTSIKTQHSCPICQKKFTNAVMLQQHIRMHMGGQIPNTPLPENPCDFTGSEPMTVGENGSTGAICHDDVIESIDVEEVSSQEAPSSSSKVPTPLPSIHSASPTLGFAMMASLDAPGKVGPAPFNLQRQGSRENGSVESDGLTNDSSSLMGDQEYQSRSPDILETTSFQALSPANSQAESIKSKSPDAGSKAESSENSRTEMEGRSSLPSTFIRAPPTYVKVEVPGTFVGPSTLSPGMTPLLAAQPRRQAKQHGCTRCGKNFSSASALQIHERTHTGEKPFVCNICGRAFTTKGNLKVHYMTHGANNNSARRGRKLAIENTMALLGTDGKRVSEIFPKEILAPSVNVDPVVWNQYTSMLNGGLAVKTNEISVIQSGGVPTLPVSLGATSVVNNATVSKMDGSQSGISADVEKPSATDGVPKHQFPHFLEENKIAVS
Method: universal PBM
Form: double-stranded DNA, one strand shown
Matrix: in vitro
Tested at: 600 nM
Setting: 8-mer, flanks averaged, mean of replicates
Direction: higher = stronger binding
With `CATAGGCC` the E-score was -0.0443.
`ACAACCTC` has an E-score of -0.0466.
The E-score of `AGCTGGTG` is reported as -0.312.
`GAGATAAC` has an E-score of 0.104.
With `ATTAAAAA` the E-score was 0.383.
`AGTTCGCC` has an E-score of -0.013.
`AACGCGAA` gave an E-score of -0.000925.
For `CAGTTCCA`, the E-score was -0.0511.
`ATTTGCGC` gave an E-score of 0.0118.
With `GAGCCAAA` the E-score was -0.0789.
With `AACTATGT` the E-score was 0.132.
`CCCTGCGG` gave an E-score of -0.395.
`CGTGCGGA` has an E-score of -0.21.
`CAACGGGA` has an E-score of -0.134.
`CCGTGATC` gave an E-score of -0.138.
`GCTCAGAA` has an E-score of -0.146.
For `TCTGTCAA`, the E-score was 0.13.
`GCCCGCAA` gave an E-score of -0.185.
With `GAGCCCGC` the E-score was -0.354.
For `TGACCTAA`, the E-score was 0.102.
With `ATATCTGG` the E-score was 0.183.
For `GATGCGAC`, the E-score was -0.149.

Block 3
Target: Interferon regulatory factor 7, full length, phosphomimetic (IRF7, Homo sapiens, UniProt Q92985, residues 1-503, S101K/S471D/S472D/S475D/S476D/S477D/S483D/S484D/S487D)
Chain of UniProt Q92985 (whole entry, unmodified, looked up): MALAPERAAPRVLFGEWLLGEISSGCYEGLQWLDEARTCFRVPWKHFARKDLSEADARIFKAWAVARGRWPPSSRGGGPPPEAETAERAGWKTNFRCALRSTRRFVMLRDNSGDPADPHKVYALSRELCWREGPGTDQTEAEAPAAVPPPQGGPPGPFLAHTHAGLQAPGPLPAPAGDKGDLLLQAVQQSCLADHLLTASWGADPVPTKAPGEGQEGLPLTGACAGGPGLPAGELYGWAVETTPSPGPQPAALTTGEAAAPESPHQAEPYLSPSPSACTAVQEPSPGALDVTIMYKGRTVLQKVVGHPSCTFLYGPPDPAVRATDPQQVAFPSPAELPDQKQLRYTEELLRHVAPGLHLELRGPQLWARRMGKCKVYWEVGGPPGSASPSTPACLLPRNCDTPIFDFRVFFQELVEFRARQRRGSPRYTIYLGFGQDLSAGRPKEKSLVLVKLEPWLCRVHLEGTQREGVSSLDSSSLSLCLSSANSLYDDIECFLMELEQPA
Method: protein-binding microarray
Form: double-stranded DNA, one strand shown
Matrix: in vitro
Tested at: 250 nM
Setting: 60-bp whole probe
With: salmon DNA 0.4 mg/ml
Reference: random background probes
Direction: higher = stronger binding
Constant ends, left off below: GCCTAGCAC … GTCTTGATTCGCTTGACGCTGCTG
`GACGGTATCGGGTATCGCGACGTGCTA` has a log fluorescence of 0.176 z-score.
`TCAACTTTGCTCTGTGCAACTGTGCTA` gave a log fluorescence of -0.222 z-score.
For `GACGGTCTCGGTATCGGGATGTGCTAG`, the log fluorescence was 2.01 z-score.
With `TCAGGTATGCTCATGACACTGTGCTAG` the log fluorescence was -0.595 z-score.
With `GACGATGTCAGTCTCGAGACGTGCTAG` the log fluorescence was 0.0271 z-score.
With `TCAAGCTTCTTTTTTATACTGTGCTAG` the log fluorescence was -0.0622 z-score.
With `GAGGGACTGGGTTTCGGGACGTGCTAG` the log fluorescence was 2.17 z-score.
`TTAGGACTGGGTTTCAGTTAGTGCTAG` gave a log fluorescence of 1.02 z-score.
`GACGAACTGAGTCTCCAGACGTGCTAG` gave a log fluorescence of -0.182 z-score.
For `TCATCTCTCTTTCCACTACTGTGCTAG`, the log fluorescence was 1.38 z-score.
`TTACCCCATCCCCCTTTTCTGTGCTAG` has a log fluorescence of 0.559 z-score.
For `GACGGTATCCTTTTCGTGACGTGCTAG`, the log fluorescence was 0.887 z-score.
`CAAACACTGGTTTTTACTTTGTGCTAG` gave a log fluorescence of 0.317 z-score.
`TCACTCCTCCTTCTCTAACTGTGCTAG` gave a log fluorescence of 0.428 z-score.
The log fluorescence of `TCATCTTTTATGCTCTTACTGTGCTAG` is reported as 0.543 z-score.
For `GTGAATATATGTATATATGTGTGCTAG`, the log fluorescence was -0.101 z-score.
`GACGATCTCAGTTTCGAGACGTGCTAG` gave a log fluorescence of 4.22 z-score.
The log fluorescence of `TTAGGTCTCCTACTGCCTTAGTGCTAG` is reported as -0.253 z-score.
For `GACGGTTACGGTTCCGGGACGTGCTAG`, the log fluorescence was 0.94 z-score.
For `GACGGTTTCGGGACTAGGGACGTGCTA`, the log fluorescence was 3.95 z-score.

Block 4
Target: Histone acetyltransferase KAT6A, winged helix 2, GST fusion (KAT6A, Homo sapiens, UniProt Q92794, residues 85-181)
Method: protein binding microarray
Form: double-stranded DNA, one strand shown
Matrix: in vitro
Tested at: not given
Setting: 8-mer, flanks averaged, mean of 2 arrays, mostly near background
Reference: not given
Direction: higher = stronger binding
Construct (chain): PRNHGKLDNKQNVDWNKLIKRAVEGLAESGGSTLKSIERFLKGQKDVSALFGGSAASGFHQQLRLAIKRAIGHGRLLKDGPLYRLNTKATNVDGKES
`GGAACTGA` has an E-score of -0.0819.
The E-score of `ATACGCAA` is reported as 0.00564.
For `ATGGCTTG`, the E-score was -0.131.
The E-score of `ACTGTTCA` is reported as -0.0937.
`AGGGTGCA` has an E-score of -0.124.
`ATACCGCA` gave an E-score of 0.0378.
`ATACCGTA` gave an E-score of -0.147.
`GAACTCGC` has an E-score of 0.218.
The E-score of `CCAGGTCA` is reported as -0.103.
`ACAGACAC` has an E-score of 0.166.
With `GTAAATGA` the E-score was -0.0692.
`CCCGAAAG` gave an E-score of 0.0262.
`GAAAGTCA` has an E-score of -0.118.
With `CCCTGACC` the E-score was 0.135.
With `AATACAAA` the E-score was 0.141.
The E-score of `GGCGCGTA` is reported as -0.109.
The E-score of `AGGTACCC` is reported as 0.00654.
For `CATGTAAC`, the E-score was -0.17.
`AACCAGAA` has an E-score of -0.033.
With `GGGGGACA` the E-score was 0.125.
`ATGGGCAC` gave an E-score of 0.0189.
`GATATGCA` gave an E-score of -0.0799.
For `GTGGAGCA`, the E-score was 0.183.
With `GAACCTTA` the E-score was 0.135.
For `AATGAAGA`, the E-score was 0.0937.

Some of these lines once more (block 2):
For `CAGTTCCA`, the E-score was -0.0511.
`ATTTGCGC` gave an E-score of 0.0118.
With `GAGCCAAA` the E-score was -0.0789.
With `AACTATGT` the E-score was 0.132.
`CCCTGCGG` gave an E-score of -0.395.
`CGTGCGGA` has an E-score of -0.21.
`CAACGGGA` has an E-score of -0.134.
`CCGTGATC` gave an E-score of -0.138.
`GCTCAGAA` has an E-score of -0.146.
For `TCTGTCAA`, the E-score was 0.13.
`GCCCGCAA` gave an E-score of -0.185.
